Measurements gathered from unrelated publications.
A part holds a random share of what one study measured. Positions count from the first letter of the parent shown.

Set 1
Target: CCNB1, cyclin fold, Cln2 fusion (human)
Technique: yeast growth competition, sequencing
Medium: yeast
Notes: strong parent motif
Reference: not given
Reading: higher = stronger binding
Quantity: normalised enrichment score
Parent: BRCA2 docking peptide (human); PSIKRNLLNEFDR; partner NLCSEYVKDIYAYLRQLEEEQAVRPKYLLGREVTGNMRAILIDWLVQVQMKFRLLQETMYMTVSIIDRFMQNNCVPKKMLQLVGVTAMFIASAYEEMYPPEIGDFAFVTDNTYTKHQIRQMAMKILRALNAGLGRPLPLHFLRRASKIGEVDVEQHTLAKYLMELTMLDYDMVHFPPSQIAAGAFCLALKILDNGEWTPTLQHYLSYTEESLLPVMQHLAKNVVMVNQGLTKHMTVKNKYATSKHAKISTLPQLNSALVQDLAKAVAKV
R13P: 1.32
P1R: 1.88
F11L: 1.15
R5Y: 0.253
R5M: 0.695
P1I: 2.14
K4H: 0.786
E10V: -0.455
P1C: 4
K4Y: 2.31
L7C: 0.556
I3W: 1.71
I3L: 1.59
S2Y: 1.37
N6A: 1.48
L8N: 0.565

Set 2
Target: Interferon regulatory factor 7, full length, phosphomimetic (IRF7, Homo sapiens, UniProt Q92985, residues 1-503, S471D/S472D/S475D/S476D/S477D/S483D/S484D/S487D)
UniProt Q92985, sequence (whole entry, unmodified, looked up): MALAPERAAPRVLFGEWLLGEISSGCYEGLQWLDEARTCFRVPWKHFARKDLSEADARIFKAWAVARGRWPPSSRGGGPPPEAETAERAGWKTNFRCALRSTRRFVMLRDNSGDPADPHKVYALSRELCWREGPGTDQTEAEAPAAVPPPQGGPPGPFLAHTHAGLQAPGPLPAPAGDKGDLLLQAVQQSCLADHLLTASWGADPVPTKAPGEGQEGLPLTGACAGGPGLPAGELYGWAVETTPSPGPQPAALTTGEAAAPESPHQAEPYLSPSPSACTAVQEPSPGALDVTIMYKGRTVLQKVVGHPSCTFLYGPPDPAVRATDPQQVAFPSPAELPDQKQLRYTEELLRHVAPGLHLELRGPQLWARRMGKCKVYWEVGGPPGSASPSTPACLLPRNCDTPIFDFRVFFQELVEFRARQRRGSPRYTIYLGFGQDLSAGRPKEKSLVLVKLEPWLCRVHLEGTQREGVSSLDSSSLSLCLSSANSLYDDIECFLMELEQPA
Technique: protein-binding microarray
Form: double-stranded DNA, one strand shown
Medium: in vitro
Concentration: 2200 nM top
Notes: 60-bp whole probe
Together with: salmon DNA 0.4 mg/ml
Reference: random background probes
Reading: higher = stronger binding
Quantity: fitted relative affinity
All sequences stand within: GCCTAGCAC … GTCTTGATTCGCTTGACGCTGCTG
GACGCTCTCCTACTGCTGACGTGCTAG: 1.19 z-score
AGCCGTCTCCACCTGGGCAAGTGCTAG: -0.455 z-score
TTGGGACTGGGGACTGGGTTAGTGCTA: -0.818 z-score
TCATACCTCATCTTCCTCACTGTGCTA: 2.12 z-score
TTACGACTGCTTATCCTTTAGTGCTAG: 1.14 z-score
GACGGATTGCTACTGCTGACGTGCTAG: 0.196 z-score
GACGGTTTCGACTATCGGAACGTGCTA: 3.37 z-score
TTAGGTCTCGTTCTCGGTTAGTGCTAG: 1.54 z-score
AAGCAAGGTGGAGAAGAGAAGTGCTAG: -1.46 z-score
CAGCTTCTAATATTCATTTTGTGCTAG: 1.18 z-score
TCATTTCTGTGTCACAGACTGTGCTAG: 2.17 z-score
TCCAATTCTCTTTTCACTTTGTGCTAG: 3.87 z-score
TCACATCTTGTTCCCAGACTGTGCTAG: 2.24 z-score
TCAACTCTAATATTGAGACTGTGCTAG: -0.236 z-score
GACGGTTTTGACTATCGGGACGTGCTA: 0.786 z-score
GACAGACTGGGGTATCGGGACGTGCTA: -0.673 z-score

Set 3
Target: RNA binding protein fox-1 homolog 2, RRM domain, GST-SBP tag (RBFOX2, Homo sapiens, UniProt O43251-10, residues 100-194)
Technique: RNA Bind-n-Seq
Form: RNA
Medium: in vitro
Concentration: 365 nM
Notes: natural RNA segment, single round, ends assumed
Reference: no-protein control
Reading: higher = stronger binding
Quantity: RBNS enrichment (R)
Construct (chain): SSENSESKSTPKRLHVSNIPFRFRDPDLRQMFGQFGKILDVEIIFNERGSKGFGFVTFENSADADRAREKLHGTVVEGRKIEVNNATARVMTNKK
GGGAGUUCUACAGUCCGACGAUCUCCAUUUGGCCUGUGAAGGAAGUAACCUCACUUUGCUGUCUGAGCAGCAUGUAUUCCUGGCAUGGGCUCUCCUAGUGGUCCAUGUGCAUCCUUGCGCAUGUGCACUCGCUUGGAAUUCUCGGGUGCCAA: 3.23
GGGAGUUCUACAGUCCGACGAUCCUGCUGCGAUCCGGCAGCCUCUCUUCACUGCUACAUGUGCUGGAAGGACAAAUAAAUAAUUGUGGUUGUGUUCUUAAUGGGGACGAGCAGACACACUGAUCUGAACAUCUUGGAAUUCUCGGGUGCCAA: 0.238
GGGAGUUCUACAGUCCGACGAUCAUUUUUAAGAGCUGAAGCUCCCUCUUGCCCUUCUUGUCUACUCCUCACUGCCAGUUGGGGCCUAGGCUUAGUCCUGGGCAAAUGUCCAUGAUCUUGCUGCUGUAGGAAGCUGGAAUUCUCGGGUGCCAA: 0.409
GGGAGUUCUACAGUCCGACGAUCUCUCAGUGAUUAGCUUUUGGUAUGUCUGUAGCUUUCCUUGAAGUUGAAUAAAUGUUUCCCCCACUCCAGUGCCCUCUACUUGUCUUUUCUCAGAGGGUCUGACUCUUUCAUGGAAUUCUCGGGUGCCAA: 1.83
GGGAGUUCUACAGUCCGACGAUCGCAAAAAUUAACCUUUUUUUUCCAGUCACAGUAUUUGUGAAAAGUAAUGAGCCAUAGUACCCAUUAAUGUUAAAGAAUAUUAAAGCAUGGAGAGGAACAUGAGGAACAAUUGGAAUUCUCGGGUGCCAA: 1.31
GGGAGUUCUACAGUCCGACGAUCAUGUCAUUUUGCCCUCAAUCUUGGAAUUUCUCCCAGGGCCCUUGUAGUCUUGUGCUGUCUCCUGUCCUCGUCCAUUUUAGAGCAAGACGGGAGGAAAAGGCAUUUCCAGCUGGAAUUCUCGGGUGCCAA: 0.364
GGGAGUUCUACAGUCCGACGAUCUGCAAAUUAAAUGCCCUUAAAUUUCACCAUUUGUCUUUCAUUUUAAAGGUUAUUUGCUCCCGAUUAUAUGAUUCAAGUGUUAUAAGUUUUAGCUUGAACUACUUUGCAGUUGGAAUUCUCGGGUGCCAA: 0.87
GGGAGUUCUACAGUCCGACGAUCGGCACAUAGAACAUUGCUAUCCAUGCAGCCUUUGGGCCCCAGGGAACGGUCACCCUGUAAAGUGCUCAGAGUCGGAGUCCAGCACCUCCCCCAGUGGUGGCAGCUGUUCCUGGAAUUCUCGGGUGCCAA: 0.276
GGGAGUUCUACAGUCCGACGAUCGAGGUUUGGGAGUGGGAUAAGGAGAGGAGACCGACUUCGGAGGUCCCUGAAAUAAAGUGAUACAAUUAGACCUCACAUGCUUUUGCUGUCUCCGGAGCGCCGCCCCUCCCUGGAAUUCUCGGGUGCCAA: 0.484
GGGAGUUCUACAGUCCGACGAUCGACAAACAGACACACUGCCCCGGACAGCAGACAGACAGACACGUUGCCCCGGACAGCAGACAGAAAAACUGCCCCGGACAGCAGACAGACAGACAAACUGCCCCAGACAGUGGAAUUCUCGGGUGCCAA: 0.44
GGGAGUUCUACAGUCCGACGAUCUCUAAGCUCCCUAGCUCAGGCCAAGAAAGAAAGCUGAGCUACUUUUAACUUUCUCUUCCUUAAAUACAAGUCAAUGAAGUGAAGGAGGGUAUGCAUACAUGCCCCUCACCUGGAAUUCUCGGGUGCCAA: 0.44
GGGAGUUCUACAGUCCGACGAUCAAAGGCAGACCCAGGGCUCCUCUAGCCUCAUACCCGUGCCCUCACAGAGCCAUGCCCCGGCACCUCUGCCCUGUGUCUUUCAUACCUCUACAUGUCUGCUUGAGAUAUUUUGGAAUUCUCGGGUGCCAA: 3.07

Set 4
Target: ABI1, truncated, D143A, DHFR fusion (Arabidopsis thaliana)
Technique: DHFR PCA, deep sequencing
Medium: yeast
Notes: methotrexate growth selection, single substitutions
Together with: (+)-ABA 710 µM
Reference: wild-type fitted maximum
Reading: higher = stronger binding
Quantity: relative binding score
Parent: PYL1, truncated, DHFR fusion (Arabidopsis thaliana); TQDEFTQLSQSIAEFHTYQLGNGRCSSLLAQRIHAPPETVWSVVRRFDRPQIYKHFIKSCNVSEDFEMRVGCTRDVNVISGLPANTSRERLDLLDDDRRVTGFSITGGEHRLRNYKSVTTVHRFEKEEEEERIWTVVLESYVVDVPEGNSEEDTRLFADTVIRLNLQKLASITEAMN; partner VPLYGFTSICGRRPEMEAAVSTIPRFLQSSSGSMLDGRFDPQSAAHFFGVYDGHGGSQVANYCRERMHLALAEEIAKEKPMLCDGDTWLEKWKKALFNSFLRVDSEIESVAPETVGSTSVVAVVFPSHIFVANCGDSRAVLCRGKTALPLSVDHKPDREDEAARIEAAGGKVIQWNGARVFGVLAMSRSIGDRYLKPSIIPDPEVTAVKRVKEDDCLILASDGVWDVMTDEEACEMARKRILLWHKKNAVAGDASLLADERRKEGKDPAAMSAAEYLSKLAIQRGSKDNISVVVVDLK
T1G: 102%
V161H: 25.5%
E125G: 97.9%
N114G: 102%
A35T: 86.3%
A84E: 46.1%
E128K: 112%
I12L: 91%
V118F: 80.2%
R98V: 104%
R32V: 98.3%
T73N: 96.8%
Y141W: 74.2%
K58R: 105%
